Experimental data of several laboratories.
Each numbered part is a random draw from the data of one study; scales do not carry over between parts. Changes are numbered by the printed parent chain.

Sample 1
Target: ABI1, truncated, D143A, DHFR fusion (Arabidopsis thaliana)
Technique: DHFR PCA, deep sequencing
Matrix: yeast
Setting: methotrexate growth selection, single substitutions
Added: (+)-ABA 2500 µM
Reference: wild-type fitted maximum
Direction: higher = stronger binding
Starting sequence: PYL1, truncated, DHFR fusion (Arabidopsis thaliana); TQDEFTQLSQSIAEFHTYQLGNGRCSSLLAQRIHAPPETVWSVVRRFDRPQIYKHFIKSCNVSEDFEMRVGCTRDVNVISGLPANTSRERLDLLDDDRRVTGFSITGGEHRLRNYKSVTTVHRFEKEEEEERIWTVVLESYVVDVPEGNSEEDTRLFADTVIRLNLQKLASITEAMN
Substitution | relative binding score [%]
V145I | 93.1
E129H | 107
F15S | 90.8
V62E | 62.2
E38T | 89.6
I133L | 103
Q31Y | 75.2
T17N | 92.3
T17S | 104
R113Y | 98.5
E139D | 71.6
L82G | 76.9
M68Y | 95.6
S11F | 83.4
P146D | 66.8

Sample 2
Target: CCND3, cyclin fold, Cln2 fusion (human)
Technique: yeast growth competition, sequencing
Matrix: yeast
Setting: weak parent motif
Reference: not given
Direction: higher = stronger binding
Starting sequence: PLK5 docking peptide (human); IFRKVGQRLLTQC; partner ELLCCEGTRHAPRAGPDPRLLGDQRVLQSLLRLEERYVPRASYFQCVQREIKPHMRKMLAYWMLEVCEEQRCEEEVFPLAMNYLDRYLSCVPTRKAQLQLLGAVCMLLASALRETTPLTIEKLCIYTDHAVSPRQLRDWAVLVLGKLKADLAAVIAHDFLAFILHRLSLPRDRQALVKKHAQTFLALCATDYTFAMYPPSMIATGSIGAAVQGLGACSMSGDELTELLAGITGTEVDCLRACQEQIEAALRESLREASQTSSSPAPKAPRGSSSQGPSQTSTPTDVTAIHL
Substitution | normalised enrichment score
IFRKVGQALLTQC [R8A] | 0.25
IARKVGQRLLTQC [F2A] | 0.781
IFRKVGARLLTQC [Q7A] | 0.201
IFRKVGQRALTQC [L9A] | 0.53
IFRKAGQRLLTQC [V5A] | -0.177
AFRKVGQRLLTQC [I1A] | 0.694
IFRKVGQRLLAQC [T11A] | 0.532

Sample 3
Target: Histone acetyltransferase KAT6A, both winged helices, GST fusion (KAT6A, Homo sapiens, UniProt Q92794, residues 1-181)
Technique: protein binding microarray
Form: double-stranded DNA, one strand shown
Matrix: in vitro
Tested at: not given
Setting: 8-mer, flanks averaged, mean of 2 arrays, mostly near background
Reference: not given
Direction: higher = stronger binding
Target sequence (chain): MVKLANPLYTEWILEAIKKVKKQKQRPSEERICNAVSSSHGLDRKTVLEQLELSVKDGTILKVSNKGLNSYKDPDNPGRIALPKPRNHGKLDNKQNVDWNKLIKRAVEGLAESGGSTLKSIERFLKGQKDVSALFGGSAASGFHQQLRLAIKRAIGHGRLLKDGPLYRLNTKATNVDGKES
Sequence | E-score
ACGGGACG | 0.241
ACCAGGCC | 0.0124
CATTGACA | -0.00419
ATGAGGTG | -0.194
CGCTCCCG | 0.256
AGTTTGGC | 0.0818
ATTATGGC | 0.00168
CCACTGGC | -0.125
AGCGCAGC | 0.227
CATTGACG | 0.0986
TACGGCGA | 0.317
ACTAGAAG | -0.127
CCAGTTGA | -0.0422
GTTATCTA | -0.0134
CTAGAAGC | 0.0121
ACAGTAGT | -0.0677
ACGGGAGA | 0.18
ATGCTAAT | -0.0943
ACCGATTG | 0.0649
CGTATGTA | 0.044
CTGTGTTA | -0.0901
ACACTAAG | -0.21
GATGGAAA | -0.0184

Sample 4
Target: RNA binding protein fox-1 homolog 2, RRM domain, GST-SBP tag (RBFOX2, Homo sapiens, UniProt O43251-10, residues 100-194)
Technique: RNA Bind-n-Seq
Form: RNA
Matrix: in vitro
Tested at: 365 nM
Setting: natural RNA segment, single round, ends assumed
Reference: no-protein control
Direction: higher = stronger binding
Shared flanks, not repeated: GGGAGUUCUACAGUCCGACGAUC … UGGAAUUCUCGGGUGCCAA
Construct (chain): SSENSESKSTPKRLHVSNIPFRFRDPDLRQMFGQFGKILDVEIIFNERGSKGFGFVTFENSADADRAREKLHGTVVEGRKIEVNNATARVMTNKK
Sequence | RBNS enrichment (R)
CUUCCGUUCUAGCCCAGUAUCCCACUUGGACCAGGUAGGCAGAUACUCAAUAAAUGCUUGUUCCAUCAAACAGUGUCUGCAGUGCUGGGUGGGGCCCCGUGAAAUGGCUA | 0.825
CAAGCCAUUCCUAUCAAAAUAUUAUUUAUUUCAGUCAAUUUUACCAAAUAACAAAGACAAUAUAUUUUCGUUUUUUUUUAUUAUGAGCAUAUGAUUUUUUGACAGGCUGU | 0.518
UAGUGUAUACAGAUGAGGGUGUCCGCUGCUGCUUUCCUUCGGAAUCCAGUGCUUCCACAGAGAUUAGCCUGUAGCUUAUAUUUGACAUUCUUCACUGUCUGUUGUUUACC | 0.34
CUGCAGCAGUUCCCUGUAUGGGUGGAUGUCCUCAGGGGCCAAGAAGAGAAGAAUGGGGACAACAGAAACCUGCUUUGUAGGGGAUUAUGUAGACUAAAAGCCUAGAAGUU | 0.731
GAGCUUCAGGCAGCAGUGUUUAUCUCUGGCCAGUUGUCUGGUUUCCAUGUAUUCUAGGCCAGGUAGGCAACACAGAGCCAAGGCGGGUGCUGGAAGCCAGACGGAACAGU | 0.34
UAAAAUAACCCAUUUGUUCACAGUUCUAAAACUAACUGGUUAAUAGGCUAAUGAUGUUCACUCAUUCUUUGAGGCAGUAGUUACCUAGGCAGACACUUUAGGUUGGUACU | 0.355
UGGGGAAAAAAAUGUUCUCGACUGAUACUUGUAUAUCGGGUGCAUUUAAUGGCAGUCACAACUCUGAAACCUUUUGUUCGUGCCGGCUUCAGGUCAAUGUGUUUAUGUGA | 0.505
CAGGGUUUCGGGUUUCACCAUGUUGGCCAGGUUGAUCUUGGACUCCUGACCCCAGGUGAUCCACCUGCCUCAGCCUUCCAAAGUGCUGGGAUUACAGGCAUGAGCCACCG | 0.291

Sample 5
Target: Sal-like protein 4, full length isoform A (SALL4, Homo sapiens, UniProt Q9UJQ4, residues 1-1053)
Sequence of UniProt Q9UJQ4 (whole entry, looked up): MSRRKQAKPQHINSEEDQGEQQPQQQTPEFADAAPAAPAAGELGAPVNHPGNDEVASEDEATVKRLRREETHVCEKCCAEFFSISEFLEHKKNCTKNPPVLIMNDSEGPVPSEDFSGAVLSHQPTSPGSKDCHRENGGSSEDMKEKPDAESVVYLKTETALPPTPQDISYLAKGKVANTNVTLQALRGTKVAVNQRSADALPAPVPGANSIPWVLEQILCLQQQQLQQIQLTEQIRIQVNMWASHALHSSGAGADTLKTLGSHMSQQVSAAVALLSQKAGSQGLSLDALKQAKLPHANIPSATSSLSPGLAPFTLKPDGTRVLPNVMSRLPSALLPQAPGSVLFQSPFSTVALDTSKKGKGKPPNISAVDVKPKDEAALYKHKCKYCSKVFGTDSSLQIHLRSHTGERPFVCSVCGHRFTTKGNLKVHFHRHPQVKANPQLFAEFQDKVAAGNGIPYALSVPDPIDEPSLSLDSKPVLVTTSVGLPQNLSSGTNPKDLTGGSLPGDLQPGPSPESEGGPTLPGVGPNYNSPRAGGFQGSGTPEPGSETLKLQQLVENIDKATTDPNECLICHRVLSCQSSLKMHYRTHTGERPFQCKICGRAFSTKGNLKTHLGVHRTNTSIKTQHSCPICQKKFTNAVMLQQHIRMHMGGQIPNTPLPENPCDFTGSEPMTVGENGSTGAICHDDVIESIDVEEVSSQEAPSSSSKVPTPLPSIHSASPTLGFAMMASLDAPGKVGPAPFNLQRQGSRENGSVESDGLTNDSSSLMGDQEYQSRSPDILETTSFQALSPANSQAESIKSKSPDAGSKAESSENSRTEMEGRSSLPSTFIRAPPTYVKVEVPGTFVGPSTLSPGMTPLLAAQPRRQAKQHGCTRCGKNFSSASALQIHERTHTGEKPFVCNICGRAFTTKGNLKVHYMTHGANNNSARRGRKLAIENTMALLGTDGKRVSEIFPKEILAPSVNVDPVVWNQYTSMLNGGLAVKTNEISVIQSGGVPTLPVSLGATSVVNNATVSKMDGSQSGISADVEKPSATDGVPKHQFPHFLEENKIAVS
Technique: universal PBM
Form: double-stranded DNA, one strand shown
Matrix: in vitro
Tested at: 600 nM
Setting: 8-mer, flanks averaged, mean of replicates
Direction: higher = stronger binding
Sequence | E-score
AAGCATGG | -0.0664
CCTGCGTC | -0.307
ACGATGCA | 0.0415
GTAAGAGA | 0.0923
ACGAGCGG | -0.229
AGTAGGTG | 0.0816
TCCGATCA | 0.0297
GACACTAA | -0.069
ATCTTCTG | 0.0394
CATCTGAC | -0.0575
CCAAGACC | -0.257
ATAACGAA | 0.32
AGTGGGCA | -0.0668
ATCGATTC | -0.00349
CTTTTCAC | 0.129
ATGGCAGG | -0.0543
CGGGGGGC | -0.36

Mixed results
Molecule | target | test | test system | conditions | how to read | measurement | value
PhoQ, residues 284 288 289 292 302 303 SLKLQV | PhoP, residues 12 14 15 18 19 NIMAP (Escherichia coli, UniProt P23836) | Sort-seq, item: YFP reporter | E. coli | PhoQ-PhoP variant library, added: 10 µM Mg2+ | reference: high Mg2+ state, higher = stronger signaling | fold induction | 0.726

Some of these lines once more (sample 4):
Sequence | RBNS enrichment (R)
CAAGCCAUUCCUAUCAAAAUAUUAUUUAUUUCAGUCAAUUUUACCAAAUAACAAAGACAAUAUAUUUUCGUUUUUUUUUAUUAUGAGCAUAUGAUUUUUUGACAGGCUGU | 0.518
UAGUGUAUACAGAUGAGGGUGUCCGCUGCUGCUUUCCUUCGGAAUCCAGUGCUUCCACAGAGAUUAGCCUGUAGCUUAUAUUUGACAUUCUUCACUGUCUGUUGUUUACC | 0.34
CUGCAGCAGUUCCCUGUAUGGGUGGAUGUCCUCAGGGGCCAAGAAGAGAAGAAUGGGGACAACAGAAACCUGCUUUGUAGGGGAUUAUGUAGACUAAAAGCCUAGAAGUU | 0.731
GAGCUUCAGGCAGCAGUGUUUAUCUCUGGCCAGUUGUCUGGUUUCCAUGUAUUCUAGGCCAGGUAGGCAACACAGAGCCAAGGCGGGUGCUGGAAGCCAGACGGAACAGU | 0.34
